Measured values from different studies.
Each numbered part is a random draw from the data of one study; scales do not carry over between parts. Several values in a cell are separate wells, animals, samples, runs or records.
Chain of UniProt Q86YV6 (whole entry, looked up): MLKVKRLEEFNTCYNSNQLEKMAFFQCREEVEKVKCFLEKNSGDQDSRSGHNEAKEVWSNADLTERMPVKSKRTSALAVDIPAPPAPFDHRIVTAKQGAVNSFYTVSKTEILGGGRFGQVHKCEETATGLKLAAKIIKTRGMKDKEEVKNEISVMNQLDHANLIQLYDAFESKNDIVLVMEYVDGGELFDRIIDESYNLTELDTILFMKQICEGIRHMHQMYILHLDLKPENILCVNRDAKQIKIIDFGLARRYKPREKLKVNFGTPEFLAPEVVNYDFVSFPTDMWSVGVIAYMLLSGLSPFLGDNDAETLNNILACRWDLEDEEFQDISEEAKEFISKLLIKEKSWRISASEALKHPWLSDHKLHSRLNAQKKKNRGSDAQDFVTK
Chain of UniProt P57058 (whole entry, looked up): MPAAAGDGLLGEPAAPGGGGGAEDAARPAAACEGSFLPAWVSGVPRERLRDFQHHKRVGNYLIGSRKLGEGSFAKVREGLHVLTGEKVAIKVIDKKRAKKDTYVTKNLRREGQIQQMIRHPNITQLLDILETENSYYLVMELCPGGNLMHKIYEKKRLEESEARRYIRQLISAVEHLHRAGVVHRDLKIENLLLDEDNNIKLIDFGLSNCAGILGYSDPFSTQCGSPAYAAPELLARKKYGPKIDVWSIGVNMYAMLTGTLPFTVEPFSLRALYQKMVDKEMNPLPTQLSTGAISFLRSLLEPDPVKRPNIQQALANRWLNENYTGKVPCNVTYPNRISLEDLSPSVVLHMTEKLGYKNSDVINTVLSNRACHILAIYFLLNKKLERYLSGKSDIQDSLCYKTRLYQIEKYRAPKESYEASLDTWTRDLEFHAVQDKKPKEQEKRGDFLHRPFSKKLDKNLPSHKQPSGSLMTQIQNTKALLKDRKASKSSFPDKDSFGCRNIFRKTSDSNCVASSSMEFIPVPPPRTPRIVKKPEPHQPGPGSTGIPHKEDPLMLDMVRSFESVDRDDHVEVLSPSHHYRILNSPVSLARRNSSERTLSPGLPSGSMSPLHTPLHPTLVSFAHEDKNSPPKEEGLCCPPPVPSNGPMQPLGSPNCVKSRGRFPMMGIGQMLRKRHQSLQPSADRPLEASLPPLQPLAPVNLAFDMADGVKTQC
Chain of UniProt P36507 (whole entry, looked up): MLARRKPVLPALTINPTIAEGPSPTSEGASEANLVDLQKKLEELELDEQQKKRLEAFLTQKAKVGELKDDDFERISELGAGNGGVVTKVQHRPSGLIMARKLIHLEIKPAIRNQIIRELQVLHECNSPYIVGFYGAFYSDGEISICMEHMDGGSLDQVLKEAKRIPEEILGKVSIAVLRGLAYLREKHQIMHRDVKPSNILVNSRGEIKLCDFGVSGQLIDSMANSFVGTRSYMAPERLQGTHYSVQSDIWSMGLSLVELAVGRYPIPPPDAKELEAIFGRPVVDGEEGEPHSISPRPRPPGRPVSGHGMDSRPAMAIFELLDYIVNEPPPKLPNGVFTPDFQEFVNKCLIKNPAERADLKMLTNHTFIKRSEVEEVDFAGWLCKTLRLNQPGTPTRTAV

Set 1 — effect on: cell-free assay; technique: competition with immobilised ligand; tested at: 1 µM; measurement: remaining binding
Compound: CCS(=O)(=O)c1cc2cc(C[C@](O)(CC(C)(C)c3ccc(F)cc3C(N)=O)C(F)(F)F)[nH]c2cn1
Serine/threonine-protein kinase NLK (NLK, Homo sapiens, UniProt Q9UBE8): 100%
Hormonally up-regulated neu tumor-associated kinase (HUNK, Homo sapiens, UniProt P57058): 100%
Phosphatidylinositol 4-kinase beta (PI4KB, Homo sapiens, UniProt Q9UBF8): 100%
cGMP-dependent protein kinase 1 (PRKG1, Homo sapiens, UniProt Q13976): 92%
Leucine-rich repeat serine/threonine-protein kinase 2 (LRRK2, Homo sapiens, UniProt Q5S007, G2019S): 100%
Dual specificity mitogen-activated protein kinase kinase 2 (MAP2K2, Homo sapiens, UniProt P36507): 95%
Serine/threonine-protein kinase PLK2 (PLK2, Homo sapiens, UniProt Q9NYY3): 91%
Tyrosine-protein kinase ABL1, non-phosphorylated (ABL1, Homo sapiens, UniProt P00519, F317L): 100%
Myosin light chain kinase family member 4 (MYLK4, Homo sapiens, UniProt Q86YV6): 100%
Calcium/calmodulin-dependent protein kinase type IV (CAMK4, Homo sapiens, UniProt Q16566): 100%
Serine/threonine-protein kinase 16 (STK16, Homo sapiens, UniProt O75716): 100%
Dual specificity mitogen-activated protein kinase kinase 6 (MAP2K6, Homo sapiens, UniProt P52564): 80%
Death-associated protein kinase 1 (DAPK1, Homo sapiens, UniProt P53355): 92%
Dual specificity mitogen-activated protein kinase kinase 1 (MAP2K1, Homo sapiens, UniProt Q02750): 91%
Cyclin-dependent kinase 14 (CDK14, Homo sapiens, UniProt O94921): 100%
Fibroblast growth factor receptor 4 (FGFR4, Homo sapiens, UniProt P22455): 72%
NT-3 growth factor receptor (NTRK3, Homo sapiens, UniProt Q16288): 94%
Serine/threonine-protein kinase PAK 6 (PAK6, Homo sapiens, UniProt Q9NQU5): 100%
Macrophage-stimulating protein receptor (MST1R, Homo sapiens, UniProt Q04912): 100%
Calcium/calmodulin-dependent protein kinase type 1G (CAMK1G, Homo sapiens, UniProt Q96NX5): 100%
Rho-associated protein kinase 2 (ROCK2, Homo sapiens, UniProt O75116): 100%
Casein kinase I isoform gamma-3 (CSNK1G3, Homo sapiens, UniProt Q9Y6M4): 100%
Serine/threonine-protein kinase B-raf (BRAF, Homo sapiens, UniProt P15056, V600E): 100%
Serine/threonine-protein kinase D2 (PRKD2, Homo sapiens, UniProt Q9BZL6): 96%

Set 2 — effect on: enzyme activity; action: inhibitor; tested at: 77 µM; relative to: untreated; measurement: remaining activity
Target: DNA polymerase theta, ATPase domain (POLQ, Homo sapiens, UniProt O75417)
Chain of UniProt O75417 (whole entry, unmodified, looked up): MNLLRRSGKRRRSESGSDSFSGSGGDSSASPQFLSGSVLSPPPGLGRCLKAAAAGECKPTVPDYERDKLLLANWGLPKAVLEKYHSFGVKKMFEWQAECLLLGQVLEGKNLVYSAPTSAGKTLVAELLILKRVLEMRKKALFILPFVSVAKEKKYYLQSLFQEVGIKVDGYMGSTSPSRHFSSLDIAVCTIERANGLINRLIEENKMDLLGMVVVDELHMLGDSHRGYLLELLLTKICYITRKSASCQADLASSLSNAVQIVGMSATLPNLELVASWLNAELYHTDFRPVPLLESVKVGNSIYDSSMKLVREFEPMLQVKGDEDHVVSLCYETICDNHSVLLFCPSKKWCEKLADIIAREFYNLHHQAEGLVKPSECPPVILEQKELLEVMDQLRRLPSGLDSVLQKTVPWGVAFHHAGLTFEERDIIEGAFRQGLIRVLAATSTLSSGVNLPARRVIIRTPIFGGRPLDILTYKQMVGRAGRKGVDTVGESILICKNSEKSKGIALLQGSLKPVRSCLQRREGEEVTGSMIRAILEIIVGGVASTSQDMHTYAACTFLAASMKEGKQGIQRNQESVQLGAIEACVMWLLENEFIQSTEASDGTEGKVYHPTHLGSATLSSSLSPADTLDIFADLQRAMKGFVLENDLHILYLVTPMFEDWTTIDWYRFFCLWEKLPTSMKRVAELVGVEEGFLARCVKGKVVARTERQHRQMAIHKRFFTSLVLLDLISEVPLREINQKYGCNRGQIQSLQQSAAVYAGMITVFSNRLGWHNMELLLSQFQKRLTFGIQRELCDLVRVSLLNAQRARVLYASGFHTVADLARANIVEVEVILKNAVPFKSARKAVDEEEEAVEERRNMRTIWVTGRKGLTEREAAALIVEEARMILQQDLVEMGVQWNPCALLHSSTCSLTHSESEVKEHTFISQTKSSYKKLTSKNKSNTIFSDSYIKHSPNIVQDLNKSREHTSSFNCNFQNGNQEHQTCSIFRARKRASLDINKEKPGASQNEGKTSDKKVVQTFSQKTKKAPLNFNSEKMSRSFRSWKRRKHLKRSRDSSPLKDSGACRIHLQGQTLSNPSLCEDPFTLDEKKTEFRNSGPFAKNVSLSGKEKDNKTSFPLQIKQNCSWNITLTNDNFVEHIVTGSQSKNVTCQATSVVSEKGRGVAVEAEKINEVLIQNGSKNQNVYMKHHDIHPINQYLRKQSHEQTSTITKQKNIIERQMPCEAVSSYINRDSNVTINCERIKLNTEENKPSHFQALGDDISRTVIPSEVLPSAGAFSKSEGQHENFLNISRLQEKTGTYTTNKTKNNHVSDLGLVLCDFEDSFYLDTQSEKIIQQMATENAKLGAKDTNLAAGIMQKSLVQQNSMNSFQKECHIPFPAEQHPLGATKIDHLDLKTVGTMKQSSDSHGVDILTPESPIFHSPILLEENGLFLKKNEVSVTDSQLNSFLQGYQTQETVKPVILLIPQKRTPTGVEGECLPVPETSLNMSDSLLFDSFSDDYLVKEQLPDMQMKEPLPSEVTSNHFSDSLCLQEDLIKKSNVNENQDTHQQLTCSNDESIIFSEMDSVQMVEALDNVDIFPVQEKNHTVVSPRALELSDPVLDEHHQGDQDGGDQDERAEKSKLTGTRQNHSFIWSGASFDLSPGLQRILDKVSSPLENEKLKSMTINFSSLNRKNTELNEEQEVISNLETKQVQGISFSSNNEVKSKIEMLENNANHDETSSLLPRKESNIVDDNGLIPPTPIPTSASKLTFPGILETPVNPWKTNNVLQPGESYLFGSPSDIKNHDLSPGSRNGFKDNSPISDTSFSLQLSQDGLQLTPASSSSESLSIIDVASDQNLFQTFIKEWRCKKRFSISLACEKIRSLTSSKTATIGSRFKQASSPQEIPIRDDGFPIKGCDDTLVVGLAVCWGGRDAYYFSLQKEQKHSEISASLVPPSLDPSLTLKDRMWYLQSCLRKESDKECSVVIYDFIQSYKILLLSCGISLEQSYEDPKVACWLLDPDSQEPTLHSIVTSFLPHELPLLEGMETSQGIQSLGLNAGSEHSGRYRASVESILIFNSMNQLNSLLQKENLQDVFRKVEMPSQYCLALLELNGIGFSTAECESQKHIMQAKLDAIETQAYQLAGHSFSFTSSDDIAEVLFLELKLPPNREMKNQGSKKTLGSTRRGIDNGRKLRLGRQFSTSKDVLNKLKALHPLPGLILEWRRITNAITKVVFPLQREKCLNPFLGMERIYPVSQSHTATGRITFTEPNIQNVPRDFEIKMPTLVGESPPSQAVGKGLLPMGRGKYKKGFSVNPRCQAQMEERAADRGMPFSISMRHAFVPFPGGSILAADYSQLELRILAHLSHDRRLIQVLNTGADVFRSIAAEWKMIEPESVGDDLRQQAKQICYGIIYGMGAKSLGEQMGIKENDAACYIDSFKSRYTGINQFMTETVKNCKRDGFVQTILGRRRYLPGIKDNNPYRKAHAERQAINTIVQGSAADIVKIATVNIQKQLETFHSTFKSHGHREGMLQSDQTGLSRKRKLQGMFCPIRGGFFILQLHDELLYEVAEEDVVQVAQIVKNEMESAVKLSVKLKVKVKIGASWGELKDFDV
C[C@@H]1CCO[C@H]2Cn3cc(C(=O)NCc4ccc(F)cc4F)c(=O)c(O)c3C(=O)N12: 99.5%
Cc1c(N(C)CS(=O)(=O)O)c(=O)n(-c2ccccc2)n1C: 93.4%
COc1ccc(CCc2nc3cc(-c4c(C)noc4C)ccc3n2C[C@H](C)N2CCOCC2)cc1Cl: 101%
C[C@H](NC(=O)Cc1cc(F)cc(F)c1)C(=O)N[C@H](C(=O)OC(C)(C)C)c1ccccc1: 95.5%
CN(C)CCCCC(=O)Nc1ccc(NC(=S)NC(=O)c2ccc(C(C)(C)C)cc2)cc1: 103%
CC(C)Cc1ccc([C@H](C)C(=O)O)cc1: 99.9%
NCC(O)(CS(=O)(=O)O)c1ccc(Cl)cc1 (stereo not shown): 97.2%
C[C@]12C=CC(=O)C=C1CC[C@@H]1[C@@H]2[C@@H](O)C[C@@]2(C)[C@H]1CC[C@]2(O)C(=O)CO: 99.6% and 75.5%
COc1ccc([C@@H]2CC(=O)c3c(O)cc(O)cc3O2)cc1O: 94.1% and 98.9%
COc1ccc(-c2coc3cc(O)ccc3c2=O)cc1: 90.4%
CNC(=O)c1ccc(C)c(-n2c(C)cc(OCc3ccc(F)cc3F)c(Br)c2=O)c1: 95.4%
CNc1cc(NS(=O)(=O)c2ccc(N)cc2)nc(NC)n1: 97.8%

Set 3 — SMILES: C=CCc1ccc(O)c(-c2ccc(O)c(CC=C)c2)c1; effect on: chloride current; technique: whole-cell voltage clamp; measurement: IC50
ANO1 del476-501: Anoctamin-1 (ANO1, Homo sapiens, UniProt Q5XXA6, del476-501)
Chain of UniProt Q5XXA6 (whole entry, unmodified, looked up): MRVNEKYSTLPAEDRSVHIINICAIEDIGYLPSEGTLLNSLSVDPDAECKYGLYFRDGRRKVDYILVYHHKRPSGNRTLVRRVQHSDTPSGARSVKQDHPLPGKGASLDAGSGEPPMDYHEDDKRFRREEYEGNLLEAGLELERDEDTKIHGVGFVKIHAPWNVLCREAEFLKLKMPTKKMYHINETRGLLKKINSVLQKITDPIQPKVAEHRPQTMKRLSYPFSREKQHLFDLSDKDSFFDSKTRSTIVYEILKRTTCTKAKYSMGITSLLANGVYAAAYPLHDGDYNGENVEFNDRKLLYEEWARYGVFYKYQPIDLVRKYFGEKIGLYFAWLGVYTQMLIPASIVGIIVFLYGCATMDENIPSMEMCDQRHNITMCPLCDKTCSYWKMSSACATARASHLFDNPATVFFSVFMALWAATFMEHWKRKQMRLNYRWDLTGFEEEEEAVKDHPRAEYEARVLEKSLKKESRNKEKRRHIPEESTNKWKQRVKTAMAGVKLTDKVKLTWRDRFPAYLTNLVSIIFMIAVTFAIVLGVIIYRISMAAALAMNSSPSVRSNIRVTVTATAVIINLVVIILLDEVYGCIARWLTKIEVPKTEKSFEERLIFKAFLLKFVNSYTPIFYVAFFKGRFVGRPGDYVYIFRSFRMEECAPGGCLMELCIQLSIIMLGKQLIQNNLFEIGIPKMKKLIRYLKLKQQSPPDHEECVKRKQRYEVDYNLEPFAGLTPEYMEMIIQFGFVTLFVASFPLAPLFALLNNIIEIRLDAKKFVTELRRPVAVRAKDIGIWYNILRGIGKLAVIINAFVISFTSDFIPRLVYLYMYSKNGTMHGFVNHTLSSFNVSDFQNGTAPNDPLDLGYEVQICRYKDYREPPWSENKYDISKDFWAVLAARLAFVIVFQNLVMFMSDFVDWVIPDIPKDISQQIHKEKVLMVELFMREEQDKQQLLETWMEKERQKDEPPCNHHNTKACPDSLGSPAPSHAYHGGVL
Anoctamin-1 (ANO1, Homo sapiens, UniProt Q5XXA6, del476-501/R631I); inhibitor; mutant R605I: 32 µM
Anoctamin-1 (ANO1, Homo sapiens, UniProt Q5XXA6, del476-501/E650A); membrane voltage -40 mV: 3.7 µM
ANO1 del476-501; membrane voltage 40 mV, with: 300 nM Ca2+: 3.42 µM
Anoctamin-1 (ANO1, Homo sapiens, UniProt Q5XXA6, del476-501/F807W); inhibitor; mutant F781W: 12.1 µM
ANO1 del476-501; inhibitor; 20 mV voltage, with: 300 nM Ca2+: 3.14 µM
Anoctamin-1 (ANO1, Homo sapiens, UniProt Q5XXA6, D383A/del476-501); membrane voltage 60 mV: 4.23 µM
Anoctamin-1 (ANO1, Homo sapiens, UniProt Q5XXA6, del476-501/F628I); inhibitor; F602I mutant at -60 mV: 15.5 µM
Anoctamin-1 (ANO1, Homo sapiens, UniProt Q5XXA6, del476-501/R631D); inhibitor; R605D mutant at 20 mV: 17.3 µM
Anoctamin-1 (ANO1, Homo sapiens, UniProt Q5XXA6, del476-501/F623A); membrane voltage 20 mV: 8.81 µM
Anoctamin-1 (ANO1, Homo sapiens, UniProt Q5XXA6, del476-501/F803W); inhibitor; 60 mV holding voltage: 5.5 µM

Set 4 — effect on: enzyme activity; action: inhibitor; tested at: 0.5 µM; relative to: control; measurement: remaining activity
Target: NUAK family SNF1-like kinase 2 (NUAK2, Homo sapiens, UniProt Q9H093)
Construct (Q9H093 1-628): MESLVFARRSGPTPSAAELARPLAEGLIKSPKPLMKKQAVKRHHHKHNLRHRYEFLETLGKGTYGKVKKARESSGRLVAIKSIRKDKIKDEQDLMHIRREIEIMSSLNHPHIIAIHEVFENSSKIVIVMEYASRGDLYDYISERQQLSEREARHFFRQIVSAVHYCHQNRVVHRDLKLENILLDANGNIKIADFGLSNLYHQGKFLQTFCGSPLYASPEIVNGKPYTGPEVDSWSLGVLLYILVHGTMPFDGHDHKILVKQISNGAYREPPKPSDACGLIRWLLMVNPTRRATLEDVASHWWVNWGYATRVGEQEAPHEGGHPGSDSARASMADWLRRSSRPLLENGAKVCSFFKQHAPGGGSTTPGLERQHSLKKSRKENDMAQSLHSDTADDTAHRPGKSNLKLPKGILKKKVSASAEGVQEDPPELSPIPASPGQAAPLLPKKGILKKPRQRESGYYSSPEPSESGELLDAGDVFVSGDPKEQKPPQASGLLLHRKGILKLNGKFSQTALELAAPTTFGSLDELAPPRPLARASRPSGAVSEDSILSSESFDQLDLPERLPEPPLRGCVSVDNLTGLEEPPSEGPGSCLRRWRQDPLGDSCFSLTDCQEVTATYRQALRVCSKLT
CN(C)S(=O)(=O)c1ccc2c(c1)/C(=C/c1cc3c([nH]1)CCCC3)C(=O)N2: 95.1%
O=C1Cc2c([nH]c3ccc(Br)cc23)-c2ccccc2N1: 71.1%
O=C1NC(=O)c2c1c1c3ccccc3[nH]c1n1cncc21: 80.1%
N#Cc1cnc2cnc(NCc3cccnc3)cc2c1Nc1ccc(F)c(Cl)c1: 135%
CCCNC(=O)Nc1ccc(Oc2ncnc3cc(OC)c(OC)cc23)cc1Cl: 123%
COc1cccc(-c2cc(=O)c3ccccc3o2)c1N: 82.9%
Cc1ccc(S(=O)(=O)/C=C/C#N)cc1: 88.4%
c1ccc2c(-c3ccncc3)c[nH]c2c1: 136%
Cc1cc(Nc2cc(N3CCN(C)CC3)nc(Sc3ccc(NC(=O)C4CC4)cc3)n2)[nH]n1: 77.5%
O=C1Nc2ccccc2/C1=C\c1c(Cl)[nH]c2ccccc12: 106%
O=C(c1cc2cc(O)ccc2[nH]1)c1cc2cc(O)ccc2[nH]1: 95.7%
COc1ccc2c(c1)c(C1=C(c3c[nH]c4ccccc34)C(=O)NC1=O)cn2CCCN(C)C: 81%
O=Nc1c(-c2c(O)[nH]c3cc(Br)ccc23)[nH]c2ccccc12: 73.4%
O=c1cc(N2CCOCC2)oc2c(-c3ccccc3)cccc12: 95.1%
Oc1cccc(-c2nc(N3CCOCC3)c3oc4ncccc4c3n2)c1: 75.3%
CCCCc1c(-c2ccc(OC)cc2)[nH]c2nccnc12: 68%
c1ccc(-c2n[nH]c3c2oc2ccccc23)cc1: 95.2%
COc1ccc(COc2ccc(Cc3cnc(N)nc3N)cc2OC)cc1: 98.1%
CN1CCN(c2ccc3nc(-c4c(N)c5c(F)cccc5[nH]c4=O)[nH]c3c2)CC1: 60.2%
O=C1NC(=O)c2c1c1c3ccccc3[nH]c1c1[nH]c3cc(Br)ccc3c21: 84.5%
O=C1Nc2ccc(Br)cc2/C1=C/c1cc2c([nH]1)CCCC2: 133%

Some of these lines once more (set 2):
COc1ccc([C@@H]2CC(=O)c3c(O)cc(O)cc3O2)cc1O: 94.1% and 98.9%
C[C@]12C=CC(=O)C=C1CC[C@@H]1[C@@H]2[C@@H](O)C[C@@]2(C)[C@H]1CC[C@]2(O)C(=O)CO: 99.6% and 75.5%
COc1ccc(-c2coc3cc(O)ccc3c2=O)cc1: 90.4%
COc1ccc(CCc2nc3cc(-c4c(C)noc4C)ccc3n2C[C@H](C)N2CCOCC2)cc1Cl: 101%
CC(C)Cc1ccc([C@H](C)C(=O)O)cc1: 99.9%
CNC(=O)c1ccc(C)c(-n2c(C)cc(OCc3ccc(F)cc3F)c(Br)c2=O)c1: 95.4%
NCC(O)(CS(=O)(=O)O)c1ccc(Cl)cc1 (stereo not shown): 97.2%
